# Experimental data of several laboratories.
# Compare with care: the assays were run in different laboratories. ± gives the spread as reported.
# Chain of UniProt P77488 (whole entry, unmodified, looked up): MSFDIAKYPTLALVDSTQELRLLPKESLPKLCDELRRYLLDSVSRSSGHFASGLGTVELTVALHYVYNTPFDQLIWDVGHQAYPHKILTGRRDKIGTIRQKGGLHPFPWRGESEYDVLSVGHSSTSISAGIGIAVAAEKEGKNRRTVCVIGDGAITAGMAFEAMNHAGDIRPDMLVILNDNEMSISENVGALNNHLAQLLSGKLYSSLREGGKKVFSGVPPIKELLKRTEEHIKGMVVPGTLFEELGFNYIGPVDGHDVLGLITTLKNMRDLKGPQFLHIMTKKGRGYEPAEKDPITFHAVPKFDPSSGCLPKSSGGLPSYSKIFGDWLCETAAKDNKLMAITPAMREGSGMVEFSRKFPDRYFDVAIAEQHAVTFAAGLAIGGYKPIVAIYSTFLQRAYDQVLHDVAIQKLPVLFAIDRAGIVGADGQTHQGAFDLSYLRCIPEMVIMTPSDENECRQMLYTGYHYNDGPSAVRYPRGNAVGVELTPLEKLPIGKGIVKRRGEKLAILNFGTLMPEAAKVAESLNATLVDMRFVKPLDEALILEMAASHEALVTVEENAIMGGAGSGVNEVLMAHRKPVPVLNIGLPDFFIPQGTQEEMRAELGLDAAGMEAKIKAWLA
# Chain of UniProt P10959 (whole entry, looked up): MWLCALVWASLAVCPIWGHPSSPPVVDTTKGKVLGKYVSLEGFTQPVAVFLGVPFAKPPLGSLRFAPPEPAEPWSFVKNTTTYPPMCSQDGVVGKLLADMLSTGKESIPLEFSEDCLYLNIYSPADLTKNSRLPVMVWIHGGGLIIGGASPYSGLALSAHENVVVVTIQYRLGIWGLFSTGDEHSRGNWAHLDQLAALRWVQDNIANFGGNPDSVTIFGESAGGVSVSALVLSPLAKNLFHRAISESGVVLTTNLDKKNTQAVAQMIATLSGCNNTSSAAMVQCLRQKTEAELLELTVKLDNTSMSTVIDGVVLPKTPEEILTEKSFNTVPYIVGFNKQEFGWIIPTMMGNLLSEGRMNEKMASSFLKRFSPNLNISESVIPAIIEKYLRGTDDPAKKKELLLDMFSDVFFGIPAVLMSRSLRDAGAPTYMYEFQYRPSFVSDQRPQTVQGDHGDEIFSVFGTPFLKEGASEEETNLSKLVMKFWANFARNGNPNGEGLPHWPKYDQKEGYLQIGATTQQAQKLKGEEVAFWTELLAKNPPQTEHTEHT
# Chain of UniProt Q7Z2W7 (whole entry, looked up): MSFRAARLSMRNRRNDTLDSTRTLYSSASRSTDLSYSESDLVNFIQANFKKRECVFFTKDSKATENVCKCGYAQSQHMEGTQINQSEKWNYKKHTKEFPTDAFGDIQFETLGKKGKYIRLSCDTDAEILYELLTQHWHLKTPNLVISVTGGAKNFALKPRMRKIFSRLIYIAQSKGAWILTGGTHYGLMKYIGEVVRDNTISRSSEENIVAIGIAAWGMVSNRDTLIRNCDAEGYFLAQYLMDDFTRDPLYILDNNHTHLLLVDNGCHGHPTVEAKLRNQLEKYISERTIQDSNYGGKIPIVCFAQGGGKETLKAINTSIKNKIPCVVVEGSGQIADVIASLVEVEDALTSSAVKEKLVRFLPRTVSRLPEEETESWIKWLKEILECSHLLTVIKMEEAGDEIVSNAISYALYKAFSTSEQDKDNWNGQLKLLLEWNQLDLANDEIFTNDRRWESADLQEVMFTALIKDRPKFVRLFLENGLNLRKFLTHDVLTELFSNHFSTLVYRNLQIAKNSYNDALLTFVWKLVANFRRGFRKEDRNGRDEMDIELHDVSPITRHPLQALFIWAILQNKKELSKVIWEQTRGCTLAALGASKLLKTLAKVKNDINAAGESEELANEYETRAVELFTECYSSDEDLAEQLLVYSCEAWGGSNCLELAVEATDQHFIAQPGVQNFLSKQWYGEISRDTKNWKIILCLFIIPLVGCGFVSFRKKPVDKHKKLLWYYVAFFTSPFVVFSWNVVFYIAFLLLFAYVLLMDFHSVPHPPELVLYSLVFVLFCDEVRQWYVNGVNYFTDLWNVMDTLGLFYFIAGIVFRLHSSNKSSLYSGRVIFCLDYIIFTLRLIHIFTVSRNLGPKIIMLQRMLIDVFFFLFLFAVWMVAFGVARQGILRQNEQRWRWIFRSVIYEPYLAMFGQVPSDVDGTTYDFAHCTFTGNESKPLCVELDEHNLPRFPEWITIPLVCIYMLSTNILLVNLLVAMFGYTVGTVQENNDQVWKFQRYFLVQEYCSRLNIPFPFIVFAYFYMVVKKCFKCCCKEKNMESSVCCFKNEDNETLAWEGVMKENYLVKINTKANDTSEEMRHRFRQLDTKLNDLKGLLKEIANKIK
# Chain of UniProt Q13546 (whole entry, looked up): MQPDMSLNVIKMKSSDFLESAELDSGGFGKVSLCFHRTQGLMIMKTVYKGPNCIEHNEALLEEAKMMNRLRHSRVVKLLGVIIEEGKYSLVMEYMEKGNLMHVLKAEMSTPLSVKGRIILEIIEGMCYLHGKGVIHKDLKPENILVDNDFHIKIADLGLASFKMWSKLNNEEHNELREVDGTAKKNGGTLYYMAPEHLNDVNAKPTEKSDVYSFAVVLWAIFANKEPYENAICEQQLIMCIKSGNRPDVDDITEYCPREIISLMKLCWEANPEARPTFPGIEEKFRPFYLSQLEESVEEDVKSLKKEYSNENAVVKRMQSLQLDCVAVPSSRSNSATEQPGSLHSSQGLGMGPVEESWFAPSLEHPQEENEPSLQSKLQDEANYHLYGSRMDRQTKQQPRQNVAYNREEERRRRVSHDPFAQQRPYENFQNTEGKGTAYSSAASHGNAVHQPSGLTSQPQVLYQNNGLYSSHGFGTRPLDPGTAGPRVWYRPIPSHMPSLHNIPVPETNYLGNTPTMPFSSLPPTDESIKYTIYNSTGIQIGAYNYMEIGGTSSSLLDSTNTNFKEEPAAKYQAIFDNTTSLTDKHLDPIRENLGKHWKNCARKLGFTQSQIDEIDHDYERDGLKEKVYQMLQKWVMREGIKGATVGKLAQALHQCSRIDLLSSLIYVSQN
# Chain of UniProt P09936 (whole entry, looked up): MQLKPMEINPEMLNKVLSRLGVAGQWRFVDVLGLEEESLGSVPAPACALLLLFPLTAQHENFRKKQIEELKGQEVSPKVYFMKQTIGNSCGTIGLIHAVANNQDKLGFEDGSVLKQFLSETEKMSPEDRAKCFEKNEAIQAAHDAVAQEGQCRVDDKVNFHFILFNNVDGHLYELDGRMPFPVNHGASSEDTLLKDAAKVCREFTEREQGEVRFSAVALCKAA
# Chain of UniProt Q13489 (whole entry, looked up): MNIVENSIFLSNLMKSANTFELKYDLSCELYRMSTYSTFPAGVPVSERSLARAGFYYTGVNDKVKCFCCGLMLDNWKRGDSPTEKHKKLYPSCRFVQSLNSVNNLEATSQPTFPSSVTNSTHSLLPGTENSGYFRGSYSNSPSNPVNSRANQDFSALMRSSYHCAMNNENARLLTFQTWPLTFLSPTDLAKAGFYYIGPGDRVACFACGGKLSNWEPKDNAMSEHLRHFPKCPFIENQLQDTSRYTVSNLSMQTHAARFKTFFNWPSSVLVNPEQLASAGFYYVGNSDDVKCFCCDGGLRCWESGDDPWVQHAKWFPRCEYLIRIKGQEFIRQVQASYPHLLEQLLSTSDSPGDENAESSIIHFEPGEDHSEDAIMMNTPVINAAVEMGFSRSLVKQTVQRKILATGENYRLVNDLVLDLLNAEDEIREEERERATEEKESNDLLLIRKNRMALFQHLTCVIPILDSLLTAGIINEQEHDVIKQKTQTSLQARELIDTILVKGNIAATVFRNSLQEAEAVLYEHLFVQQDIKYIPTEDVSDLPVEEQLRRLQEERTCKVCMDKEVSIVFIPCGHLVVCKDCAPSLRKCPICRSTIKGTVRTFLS
# Chain of UniProt O00270 (whole entry, looked up): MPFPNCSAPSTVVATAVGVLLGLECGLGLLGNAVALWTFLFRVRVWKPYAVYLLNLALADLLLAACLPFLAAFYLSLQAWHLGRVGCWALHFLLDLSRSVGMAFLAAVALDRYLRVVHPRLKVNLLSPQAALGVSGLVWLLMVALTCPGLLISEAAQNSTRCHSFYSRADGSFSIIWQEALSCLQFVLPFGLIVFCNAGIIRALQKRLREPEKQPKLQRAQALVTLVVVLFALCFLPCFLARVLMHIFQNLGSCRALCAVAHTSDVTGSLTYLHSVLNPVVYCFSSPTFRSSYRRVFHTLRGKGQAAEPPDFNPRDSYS
# Chain of UniProt Q96ES7 (whole entry, looked up): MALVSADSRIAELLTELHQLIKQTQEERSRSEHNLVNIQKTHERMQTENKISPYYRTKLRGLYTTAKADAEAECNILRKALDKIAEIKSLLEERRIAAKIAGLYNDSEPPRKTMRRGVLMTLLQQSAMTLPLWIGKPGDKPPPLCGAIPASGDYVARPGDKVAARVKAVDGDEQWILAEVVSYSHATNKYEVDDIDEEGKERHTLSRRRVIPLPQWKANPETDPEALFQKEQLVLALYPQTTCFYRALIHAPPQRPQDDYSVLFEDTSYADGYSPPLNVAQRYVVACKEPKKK
# Chain of UniProt Q13258 (whole entry, looked up): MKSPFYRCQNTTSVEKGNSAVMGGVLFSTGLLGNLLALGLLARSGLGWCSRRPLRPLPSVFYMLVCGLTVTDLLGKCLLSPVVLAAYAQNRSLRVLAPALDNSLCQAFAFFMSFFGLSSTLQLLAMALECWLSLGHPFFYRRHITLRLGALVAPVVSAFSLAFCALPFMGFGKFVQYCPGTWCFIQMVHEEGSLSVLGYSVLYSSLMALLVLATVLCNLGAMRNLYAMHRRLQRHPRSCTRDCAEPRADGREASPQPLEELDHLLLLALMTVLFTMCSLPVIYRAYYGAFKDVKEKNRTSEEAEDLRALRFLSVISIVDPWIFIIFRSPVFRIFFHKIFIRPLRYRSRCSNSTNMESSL
SMILES,target or system,test,test system,conditions,how to read,measurement,value
Cn1cc(C(=O)CCl)cc1C(=O)C(Cl)(Cl)Cl,"Ubiquitin carboxyl-terminal hydrolase isozyme L1 (UCHL1, Homo sapiens, UniProt P09936)","covalent, intact protein LC-MS",,12.5 µM,,labelling,14.9%
Cc1ncsc1-c1ccc([C@H](CC(=O)N2CCN(c3ccc(C#Cc4ccc(C(=O)N5CCC(n6cc(-c7ccc8c(c7)CCN8C(=O)Cc7cccc(OC(F)(F)F)c7)c7c(N)ncnc76)CC5)cc4)cn3)CC2)NC(=O)[C@@H]2C[C@@H](O)CN2C(=O)[C@@H](NC(=O)C2(F)CC2)C(C)(C)C)cc1,"Receptor-interacting serine/threonine-protein kinase 1 (RIPK1, Homo sapiens, UniProt Q13546)","degrader, Western blot",Jurkat,"100 nM, 24 h after wash-out, 24 h pretreatment then washout",,protein level recovery,53%
CC[C@H](C)[C@H](NC(=O)[C@H](Cc1ccccc1)NC(=O)[C@H](CCC(=O)O)NC(=O)[C@H](CCCNC(=N)N)NC(=O)[C@H](C)NC(=O)[C@H](C)NC(=O)[C@H](CCC(N)=O)NC(=O)[C@H](CCC(=O)O)NC(=O)[C@H](CCC(=O)O)NC(=O)[C@H](CC(C)C)NC(=O)[C@H](Cc1ccc(O)cc1)NC(=O)[C@H](CO)NC(=O)[C@H](CO)NC(=O)[C@@H](NC(=O)[C@H](CC(=O)O)NC(=O)[C@H](CO)NC(=O)[C@@H](NC(=O)[C@H](Cc1ccccc1)NC(=O)[C@@H](NC(=O)CNC(=O)[C@H](CCC(=O)O)NC(=O)[C@H](C)NC(=O)CCc1c[nH]cn1)[C@@H](C)O)[C@@H](C)O)C(C)C)C(=O)N[C@@H](C)C(=O)N[C@@H](Cc1c[nH]c2ccccc12)C(=O)N[C@@H](CC(C)C)C(=O)N[C@H](C(=O)N[C@@H](CCCNC(=N)N)C(=O)NCC(=O)N[C@@H](CCCNC(=N)N)C(=O)N[C@@H](CCCCNC(=O)COCCOCCNC(=O)COCCOCCNC(=O)CC[C@H](NC(=O)CCCCCCCCCCCCCCCCC(=O)O)C(=O)O)C(=O)NCC(=O)NCC(=O)N[C@@H](CO)C(=O)N[C@@H](CCCCNc1c(NCCCCCN(O)C(=O)CCC(=O)NCCCCCN(O)C(=O)CCC(=O)NCCCCCN(O)C(C)=O)c(=O)c1=O)C(=O)O)C(C)C [zirconium-89 labelled],,ex vivo gamma counting,"rat, brain","subcutaneous, 3 nmol/kg, 24 h, added: [89Zr]-labelled peptide",,tissue uptake,0.02 %ID/g
CN(CC(=O)O)C(=N)NP(=O)(O)O,"Creatine kinase U-type, mitochondrial (CKMT1A, Homo sapiens, UniProt P12532, E265D)","substrate, Kinase-Glo luminescence",,"pH 7.0, reverse reaction, E227D mutant, added: second substrate in excess",,Km,139 ± 3 µM
CC(=O)P(=O)(O)OCCc1cn([C@H](Cc2ccccc2)C(=O)O)nn1,"1-deoxy-D-xylulose-5-phosphate synthase (dxs, Escherichia coli, UniProt P77488, R99A)",,,"concentration not given, variant enzyme",baseline: wild type,Ki fold change,~29 fold
CC[C@H](C)[C@H](NC(=O)CNC(=O)[C@@H](N)CCCCN)C(=O)N[C@@H](CC(C)C)C(=O)N[C@@H](CCCCN)C(=O)N[C@@H](CCCNC(=N)N)C(=O)N[C@@H](CCC(=O)O)C(=O)N[C@@H](CCCCN)C(=O)N[C@@H](CCCNC(=N)N)C(=O)N[C@@H](CC(C)C)C(=O)N[C@@H](CCCNC(=N)N)C(=O)N[C@@H](CCCNC(=N)N)C(=O)N[C@@H](CCCCN)C(=O)N[C@@H](CC(N)=O)C(=O)N[C@H](C(=O)N[C@@H](Cc1c[nH]cn1)C(=O)N[C@@H](Cc1c[nH]c2ccccc12)C(=O)N1CCC[C@H]1C(=O)N[C@@H](CCC(=O)O)C(=O)N[C@@H](CCC(=O)O)C(=O)NCC(=O)N[C@@H](CCCCN)C(=O)N[C@@H](CC(C)C)C(=O)N[C@@H](CCCNC(=N)N)C(=O)N[C@@H](CCC(=O)O)C(=O)N[C@@H](Cc1ccc(O)cc1)C(=O)N[C@@H](Cc1ccccc1)C(=O)N[C@@H](Cc1ccc(O)cc1)C(=O)N[C@@H](Cc1ccccc1)C(=O)N[C@@H](CCC(=O)O)C(=O)N[C@@H](CC(C)C)C(=O)N[C@@H](CC(=O)O)C(=O)N[C@@H](CCC(=O)O)C(=O)N[C@@H](C)C(=O)N[C@@H](CCC(=O)O)C(=O)N[C@@H](CCCNC(=N)N)C(=O)N[C@H](C(=O)N[C@@H](CC(N)=O)C(=O)N[C@H](C(=O)O)C(C)C)C(C)C)C(C)C,HeLa and HEK-293T cells,"phosphatase bead binding, competitive inhibitor, PIB pulldown iBAQ LC-MS/MS, refers to: PPP6R3",,concentration not given,baseline: untreated control,log2 fold change,-0.00455
C[C@H]1CN(c2n[nH]c3nc(N[C@H]4CC[C@H](NS(=O)(=O)CCC(F)(F)F)CC4)ncc23)CCO1,"Large ribosomal subunit protein uL5 (Homo sapiens, UniProt P62913)","Kinobeads competition, refers to: RPL11",,"0.16 µM, unit not given",baseline: vehicle,remaining binding,1.19
CO[C@H]1C[C@@H]2CC[C@@H](C)[C@@](O)(O2)C(=O)C(=O)N2CCCC[C@H]2C(=O)O[C@H]([C@H](C)C[C@@H]2CC[C@@H](OC(=O)NCCOCCOCCOCCOCCOCCOCCOCCOCCC(=O)N3CCc4cc(Cn5nc(-c6ccc7oc(N)nc7c6)c6c(N)ncnc65)ccc4C3)[C@H](OC)C2)C[C@@H](O)[C@H](C)/C=C(\C)[C@@H](O)[C@@H](OC)C(=O)[C@H](C)C[C@H](C)/C=C/C=C/C=C/1C,,,patients with advanced solid tumours,"intravenous, once weekly, without dexamethasone prophylaxis",,maximum tolerated dose,8 mg
CCCCN1CCC(COC(=O)c2ccc(N)c(O[11CH3])c2)CC1,,"5-HT4 receptor binding, PET","rhesus monkey (Macaca mulatta), brain hippocampus","dose not given, baseline scan, unit not given",baseline: cerebellum reference region,binding potential BPND,0.48 ± 0.06
O=[N+]([O-])/C=C/c1ccc2c(c1)OCO2,"Transient receptor potential cation channel subfamily M member 8 (TRPM8, Homo sapiens, UniProt Q7Z2W7)",antagonist,HEK293,5 µM,,remaining activity,98.3 ± 9.84%
CN(C(=O)n1cnc(-c2ccc[n+]([O-])c2)c1)C1CCCCC1,"Carboxylesterase 1C (Ces1c, Rattus norvegicus, UniProt P10959)","enzyme activity, ABPP","rat, brain","oral, 10 mg/kg/day, 28 days",baseline: vehicle,fold change,-2.9
COc1cc(N)c(Cl)cc1C(=O)NC1CN2CCC1CC2 (stereo not shown),"12-(S)-hydroxy-5,8,10,14-eicosatetraenoic acid receptor (GPR31, Homo sapiens, UniProt O00270)","β-arrestin recruitment, TANGO luminescence, refers to: GPR31",,concentration not given,baseline: basal luminescence,log2 fold change,-0.135
S=c1[nH]c2ccccc2s1,"Baculoviral IAP repeat-containing protein 3, BIR1 domain (BIRC3, Homo sapiens, UniProt Q13489)","binding, affinity selection mass spectrometry",,"100 nM, pooled screen",baseline: other proteins,fold change,10.6
O=C(Nc1cccnn1)N1CCC(=Cc2cccc(Oc3ccc(C(F)(F)F)cn3)c2)CC1,"Sigma non-opioid intracellular receptor 1 (SIGMAR1, Homo sapiens, UniProt Q99720)","radioligand binding, inhibitor",,"10 µM, human, added: [3H]haloperidol",,inhibition,24%
C[C@@H](O)[C@@H](CO)NC(=O)[C@@H](CCCNC(=N)N)NC(=O)[C@@H]1CCCN1C(=O)[C@@H]1CSSC[C@H](NC(=O)[C@H](Cc2ccccc2)NC(=O)CN2CCN(CC(=O)O)CCN(CC(=O)O)CCN(CC(=O)O)CC2)C(=O)N[C@@H](Cc2ccc(O)cc2)C(=O)N[C@@H](Cc2ccccc2)C(=O)N[C@@H](CCC(N)=O)C(=O)N[C@@H](CC(N)=O)C(=O)N1 [gallium-68 labelled],,,"Wistar rat, healthy, Parotid gland","intravenous, 8 MBq, 30 min, mean",,tissue uptake,0.22 %ID/g
Nc1ccc([N+](=O)[O-])cc1,"Androgen receptor (AR, Pan troglodytes, UniProt O97775)",radioligand binding,,concentration not given,direction not given,cytotoxicity Z-score,0.00985
CC[C@H](C)[C@@H]1NC(=O)[C@@H]2CCCN2C(=O)[C@H](CC(C)C)NC(=O)[C@H](CC(C)C)NC(=O)CNC(=O)[C@@H](NC(=O)[C@@H](NC(=O)[C@H](CC(=O)O)NC(=O)CNC(=O)[C@@H](NC(=O)[C@H](C)NC(=O)CNC(=O)[C@H](CCCCN)NC(=O)[C@H](CC(C)C)NC(=O)[C@H](CC(C)C)NC(=O)[C@H](CCCCN)NC(=O)CNC(=O)[C@@H](NC(=O)[C@@H](N)CC(C)C)C(C)C)C(C)C)C(C)C)CSSC[C@@H](C(=O)O)NC1=O,,"RNA-seq, refers to: Cyp4f18 mRNA","mouse traumatic brain injury, frontal cortex and hippocampus",dose not given,baseline: TBI plus compound vs TBI,log2 fold change,-3.08
C[C@H](N)C(=O)N[C@@H](CCCNC(=N)N)C(=O)N[C@H](C(=O)N[C@@H](CCCC[N+](C)(C)C)C(=O)N[C@@H](CCC(N)=O)C(=O)N[C@H](C(=O)N[C@@H](C)C(N)=O)[C@@H](C)O)[C@@H](C)O,"SGF29, TTD (Homo sapiens, UniProt Q96ES7)","binding, ITC",,,baseline: Kme3 peptide KD over compound KD,preference over Kme3 peptide,1.3 fold
O=C(Nc1cnccc1Cl)N1CCN(Cc2ccc3c(c2)OC(F)(F)O3)CC1,"Prostaglandin D2 receptor (PTGDR, Homo sapiens, UniProt Q13258)","radioligand binding, inhibitor",,"10 µM, human, added: [3H]prostaglandin D2",,inhibition,-2%
C[C@]1(CO)Cc2ncn(-c3ccc(C#N)c(Cl)c3)c2C(=O)O1,,,human,80 mg single dose,,subjects with severe TEAEs,0%
CCOC(=O)CC(SP(=O)(OC)OC)C(=O)OCC (stereo not shown),"uncharacterized protein (Anopheles coluzzii, UniProt A0A6E8VQK1)","enzyme activity, inhibitor",Sf9 cell homogenate,"0.04587 µM, 0.1667 h, added: α-naphthyl acetate substrate",baseline: no inhibitor,remaining activity,99.4%
CC(=O)NC[C@H]1[C@H](O)[C@H](O)[C@@H]2[C@H](O)C[C@@H](CO)N21,human placental β-N-acetylglucosaminidase,,,"0.02575 µM, run 1, added: p-nitrophenyl GlcNAc",,inhibition,79.6%
COc1cc(Nc2ncc(F)c(Nc3ccc4c(n3)NC(=O)C(C)(C)O4)n2)cc(OC)c1OC,"Tyrosine-protein kinase BTK (BTK, Homo sapiens, UniProt Q06187)",KINOMEscan,,10 µM,,inhibition,5%
COc1ccc(N2C(=O)N(c3c(C)cccc3Cl)Cc3cnc(Nc4ccc(C5CCN(C)CC5)cc4OC)nc32)nc1,"Calcium/calmodulin-dependent protein kinase type IV (CAMK4, Homo sapiens, UniProt Q16566)",kinase activity,,0.5 µM,,inhibition,2.2%
COc1cc2c(Oc3ccc4[nH]c(C)cc4c3F)ccnc2cc1OCC1(N)CC1,,,paediatric refractory sarcoma patients,8 mg,,weight loss incidence,25%

# Excerpt of the above:
SMILES,target or system,test,test system,conditions,how to read,measurement,value
O=C(Nc1cccnn1)N1CCC(=Cc2cccc(Oc3ccc(C(F)(F)F)cn3)c2)CC1,"Sigma non-opioid intracellular receptor 1 (SIGMAR1, Homo sapiens, UniProt Q99720)","radioligand binding, inhibitor",,"10 µM, human, added: [3H]haloperidol",,inhibition,24%
O=[N+]([O-])/C=C/c1ccc2c(c1)OCO2,"Transient receptor potential cation channel subfamily M member 8 (TRPM8, Homo sapiens, UniProt Q7Z2W7)",antagonist,HEK293,5 µM,,remaining activity,98.3 ± 9.84%
